Measurements pooled from the literature.
A part holds a random share of what one study measured. Several values in a cell are separate wells, animals, samples, runs or records.
UniProt P52564, sequence (whole entry, looked up): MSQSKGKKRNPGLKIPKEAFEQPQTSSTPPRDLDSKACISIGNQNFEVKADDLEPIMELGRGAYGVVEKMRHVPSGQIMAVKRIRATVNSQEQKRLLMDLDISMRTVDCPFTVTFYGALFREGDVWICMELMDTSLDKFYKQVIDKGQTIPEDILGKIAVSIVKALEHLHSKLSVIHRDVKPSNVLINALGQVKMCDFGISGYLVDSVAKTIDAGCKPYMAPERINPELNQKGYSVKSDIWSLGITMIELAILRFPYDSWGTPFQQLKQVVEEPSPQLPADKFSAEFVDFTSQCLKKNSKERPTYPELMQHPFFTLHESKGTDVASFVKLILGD
UniProt P07948, sequence (whole entry, looked up): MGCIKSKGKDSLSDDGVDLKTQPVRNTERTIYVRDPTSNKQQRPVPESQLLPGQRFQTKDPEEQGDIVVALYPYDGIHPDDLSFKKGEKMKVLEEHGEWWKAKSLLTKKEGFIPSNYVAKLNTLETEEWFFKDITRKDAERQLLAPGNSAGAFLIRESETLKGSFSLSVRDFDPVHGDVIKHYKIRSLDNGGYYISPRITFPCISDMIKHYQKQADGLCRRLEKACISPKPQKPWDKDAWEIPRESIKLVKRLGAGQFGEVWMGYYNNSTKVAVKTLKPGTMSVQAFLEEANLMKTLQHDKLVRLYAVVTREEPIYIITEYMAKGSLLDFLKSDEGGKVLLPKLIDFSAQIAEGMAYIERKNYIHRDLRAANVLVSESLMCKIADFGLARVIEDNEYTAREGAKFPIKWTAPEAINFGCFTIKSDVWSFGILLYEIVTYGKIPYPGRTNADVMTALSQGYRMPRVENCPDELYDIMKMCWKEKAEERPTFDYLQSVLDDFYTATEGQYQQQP
UniProt Q02779, sequence (whole entry, looked up): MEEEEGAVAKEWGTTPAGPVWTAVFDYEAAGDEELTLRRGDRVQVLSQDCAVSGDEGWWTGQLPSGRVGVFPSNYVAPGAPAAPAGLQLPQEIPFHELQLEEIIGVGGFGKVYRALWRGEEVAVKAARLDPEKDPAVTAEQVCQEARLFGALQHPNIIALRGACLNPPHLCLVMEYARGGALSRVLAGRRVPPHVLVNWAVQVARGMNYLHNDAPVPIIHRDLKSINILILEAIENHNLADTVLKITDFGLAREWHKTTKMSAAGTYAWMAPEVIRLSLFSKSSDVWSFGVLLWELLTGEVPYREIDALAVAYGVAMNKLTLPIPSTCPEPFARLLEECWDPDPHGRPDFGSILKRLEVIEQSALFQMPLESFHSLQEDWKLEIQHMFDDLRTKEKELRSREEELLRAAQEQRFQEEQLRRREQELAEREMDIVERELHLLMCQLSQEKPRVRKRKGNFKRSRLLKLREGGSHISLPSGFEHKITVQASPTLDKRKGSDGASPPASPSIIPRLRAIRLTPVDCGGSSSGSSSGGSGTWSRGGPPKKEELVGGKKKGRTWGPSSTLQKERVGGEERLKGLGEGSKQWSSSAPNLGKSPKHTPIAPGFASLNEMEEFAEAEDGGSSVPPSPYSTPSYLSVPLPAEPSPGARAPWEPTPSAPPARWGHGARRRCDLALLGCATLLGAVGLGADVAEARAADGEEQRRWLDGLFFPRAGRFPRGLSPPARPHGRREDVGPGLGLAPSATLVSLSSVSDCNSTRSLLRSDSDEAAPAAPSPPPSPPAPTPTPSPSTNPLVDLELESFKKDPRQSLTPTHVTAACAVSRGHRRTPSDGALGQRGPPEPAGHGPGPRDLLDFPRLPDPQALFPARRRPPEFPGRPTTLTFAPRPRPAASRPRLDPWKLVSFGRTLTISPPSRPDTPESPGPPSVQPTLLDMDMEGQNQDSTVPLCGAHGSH
UniProt P68400, sequence (whole entry, looked up): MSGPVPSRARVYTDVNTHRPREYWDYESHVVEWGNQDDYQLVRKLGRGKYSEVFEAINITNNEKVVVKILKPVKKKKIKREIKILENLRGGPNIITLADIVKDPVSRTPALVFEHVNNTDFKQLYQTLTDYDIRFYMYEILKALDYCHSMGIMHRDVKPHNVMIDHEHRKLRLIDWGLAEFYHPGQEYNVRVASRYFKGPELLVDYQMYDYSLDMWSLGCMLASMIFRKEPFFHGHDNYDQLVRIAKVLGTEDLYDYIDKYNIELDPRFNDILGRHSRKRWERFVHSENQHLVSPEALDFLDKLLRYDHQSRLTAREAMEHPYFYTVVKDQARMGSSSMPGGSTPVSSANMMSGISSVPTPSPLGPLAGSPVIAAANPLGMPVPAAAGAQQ
UniProt P11802, sequence (whole entry, looked up): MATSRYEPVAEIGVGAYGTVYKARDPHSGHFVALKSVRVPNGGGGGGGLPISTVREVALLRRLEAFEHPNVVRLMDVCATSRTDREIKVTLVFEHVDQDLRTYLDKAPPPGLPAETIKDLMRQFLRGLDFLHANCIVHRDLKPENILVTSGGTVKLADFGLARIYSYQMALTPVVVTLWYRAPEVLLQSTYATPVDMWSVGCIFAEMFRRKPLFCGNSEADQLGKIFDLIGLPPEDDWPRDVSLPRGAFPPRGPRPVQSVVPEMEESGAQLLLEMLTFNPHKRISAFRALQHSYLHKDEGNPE
UniProt Q9Y3S1, sequence (whole entry, looked up): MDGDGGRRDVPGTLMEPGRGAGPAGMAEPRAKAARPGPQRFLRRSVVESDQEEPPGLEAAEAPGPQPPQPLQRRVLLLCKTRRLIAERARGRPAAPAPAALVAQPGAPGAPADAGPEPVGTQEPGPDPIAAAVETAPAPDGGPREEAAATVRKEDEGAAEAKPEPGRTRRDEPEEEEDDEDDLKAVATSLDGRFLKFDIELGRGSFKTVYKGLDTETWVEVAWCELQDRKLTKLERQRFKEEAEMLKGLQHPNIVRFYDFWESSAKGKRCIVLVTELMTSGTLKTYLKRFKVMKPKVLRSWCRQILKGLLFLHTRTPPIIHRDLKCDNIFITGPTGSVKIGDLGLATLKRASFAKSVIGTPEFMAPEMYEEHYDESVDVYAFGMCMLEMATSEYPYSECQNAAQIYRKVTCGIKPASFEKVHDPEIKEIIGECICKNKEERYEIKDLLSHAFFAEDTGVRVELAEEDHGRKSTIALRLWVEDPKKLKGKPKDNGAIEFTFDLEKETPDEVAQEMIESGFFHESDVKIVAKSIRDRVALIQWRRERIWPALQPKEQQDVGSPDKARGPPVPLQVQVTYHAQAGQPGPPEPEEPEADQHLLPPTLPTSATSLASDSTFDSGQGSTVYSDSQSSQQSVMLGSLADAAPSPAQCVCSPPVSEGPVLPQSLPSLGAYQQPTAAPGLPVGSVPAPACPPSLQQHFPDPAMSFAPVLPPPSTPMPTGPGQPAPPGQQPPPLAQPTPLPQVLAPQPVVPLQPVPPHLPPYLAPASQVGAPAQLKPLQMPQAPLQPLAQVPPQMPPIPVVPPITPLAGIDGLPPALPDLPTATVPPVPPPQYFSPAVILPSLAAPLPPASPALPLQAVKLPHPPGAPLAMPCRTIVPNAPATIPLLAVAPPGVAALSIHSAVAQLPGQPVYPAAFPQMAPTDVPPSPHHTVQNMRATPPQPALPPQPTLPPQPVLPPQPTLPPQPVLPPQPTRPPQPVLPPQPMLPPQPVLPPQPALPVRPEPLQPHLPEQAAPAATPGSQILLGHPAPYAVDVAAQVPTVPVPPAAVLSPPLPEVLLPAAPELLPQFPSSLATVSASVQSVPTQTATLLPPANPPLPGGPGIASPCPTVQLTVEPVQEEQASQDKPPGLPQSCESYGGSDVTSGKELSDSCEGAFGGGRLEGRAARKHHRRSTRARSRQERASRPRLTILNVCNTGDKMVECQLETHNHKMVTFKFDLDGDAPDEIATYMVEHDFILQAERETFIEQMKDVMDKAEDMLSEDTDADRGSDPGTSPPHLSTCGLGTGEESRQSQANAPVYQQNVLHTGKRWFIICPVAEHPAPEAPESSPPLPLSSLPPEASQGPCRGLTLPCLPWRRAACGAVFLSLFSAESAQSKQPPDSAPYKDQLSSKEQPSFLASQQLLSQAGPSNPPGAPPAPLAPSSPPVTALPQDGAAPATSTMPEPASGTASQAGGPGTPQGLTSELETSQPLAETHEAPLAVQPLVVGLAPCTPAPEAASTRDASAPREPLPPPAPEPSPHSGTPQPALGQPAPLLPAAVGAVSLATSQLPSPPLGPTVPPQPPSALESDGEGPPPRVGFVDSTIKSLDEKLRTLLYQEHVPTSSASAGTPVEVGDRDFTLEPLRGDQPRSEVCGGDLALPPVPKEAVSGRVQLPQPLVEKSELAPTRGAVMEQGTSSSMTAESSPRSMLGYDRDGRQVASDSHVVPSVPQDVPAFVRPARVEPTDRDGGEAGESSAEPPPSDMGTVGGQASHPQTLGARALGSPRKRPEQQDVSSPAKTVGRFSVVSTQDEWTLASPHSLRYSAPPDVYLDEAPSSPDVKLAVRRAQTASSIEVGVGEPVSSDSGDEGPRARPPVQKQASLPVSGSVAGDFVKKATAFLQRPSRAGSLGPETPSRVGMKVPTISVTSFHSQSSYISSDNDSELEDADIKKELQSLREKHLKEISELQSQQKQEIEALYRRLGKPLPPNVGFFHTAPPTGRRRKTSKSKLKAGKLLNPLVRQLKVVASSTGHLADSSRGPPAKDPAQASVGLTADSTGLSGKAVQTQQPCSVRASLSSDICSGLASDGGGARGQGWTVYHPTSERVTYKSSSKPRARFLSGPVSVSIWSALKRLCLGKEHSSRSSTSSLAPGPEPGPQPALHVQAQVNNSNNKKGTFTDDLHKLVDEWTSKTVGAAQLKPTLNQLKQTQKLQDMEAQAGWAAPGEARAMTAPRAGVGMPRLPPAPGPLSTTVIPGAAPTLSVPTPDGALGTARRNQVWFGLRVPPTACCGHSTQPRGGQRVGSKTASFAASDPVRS

Study 1 — endpoint: plasma concentration
Structure (SMILES): O=C1CCC(N2Cc3cc(C4CCN(Cc5ccccc5)CC4)ccc3C2=O)C(=O)N1 (centres unmarked)
ICR mouse, male; intravenous, 1 mg/kg, 1 h: 87.1 ng/mL
male Sprague Dawley rats, plasma; oral, 3 mg/kg, 6 h: 12.3 ng/mL
ICR mouse, male, plasma; intravenous, 1 mg/kg, 8 h: 8.24 ng/mL and 12.4 ng/mL
ICR mouse, male, plasma; oral, 3 mg/kg, 6 h: 12.7 ng/mL and 8.43 ng/mL
Sprague Dawley rat, male, plasma; oral, 3 mg/kg, 0.25 h: 20.4 ng/mL and 13.9 ng/mL and 40.1 ng/mL
male ICR mice, plasma; oral, 3 mg/kg, 2 h: 119 ng/mL
ICR mouse, male, plasma; oral, 3 mg/kg, 0.5 h: 268 ng/mL and 283 ng/mL
ICR mouse, male, plasma; intravenous, 1 mg/kg, 2 h: 41 ng/mL and 46.3 ng/mL
ICR mouse, male, plasma; intravenous, 1 mg/kg, 0.5 h: 98.3 ng/mL and 124 ng/mL
male Sprague Dawley rats, plasma; oral, 3 mg/kg, 8 h: 7.09 ng/mL
Sprague Dawley rat, male, plasma; oral, 3 mg/kg, 4 h: 68.4 ng/mL and 72.9 ng/mL
male Sprague Dawley rats, plasma; oral, 3 mg/kg, 4 h: 44.2 ng/mL

Study 2 — read-out: enzyme activity; action: inhibitor; tested at: 0.5 µM; relative to: control; endpoint: remaining activity
Structure (SMILES): CN([C@@H](Cc1ccc(OS(=O)(=O)c2cccc3cnccc23)cc1)C(=O)N1CCN(c2ccccc2)CC1)S(=O)(=O)c1cccc2cnccc12
CSNK2A1 (Homo sapiens, UniProt P68400): 100%
IRAK4 (Homo sapiens, UniProt Q9NWZ3): 92.1%
WNK2 (Homo sapiens, UniProt Q9Y3S1): 100%
NEK4 (Homo sapiens, UniProt P51957): 99.5%
MAPK13 (Homo sapiens, UniProt O15264): 102%
PRKG1 (Homo sapiens, UniProt Q13976): 93.6%
MAP3K10 (Homo sapiens, UniProt Q02779): 92.6%
MAP2K6 (Homo sapiens, UniProt P52564): 104%
CSNK1A1 (Homo sapiens, UniProt P48729): 99%
LYN (Homo sapiens, UniProt P07948): 101%
PRKCD (Homo sapiens, UniProt Q05655): 93%
BTK (Homo sapiens, UniProt Q06187): 97.1%

Study 3 — tested at: 1 µM; endpoint: remaining binding
SMILES: CCOCCn1cc(C(=O)Nc2ccc(-n3nc(-c4cccnc4)cc3C(F)(F)F)cn2)ccc1=O
STK32A (Homo sapiens, UniProt Q8WU08); cell-free assay, competition with immobilised ligand: 96%
MAP2K6 (Homo sapiens, UniProt P52564); cell-free assay, competition with immobilised ligand: 100%
STK39 (Homo sapiens, UniProt Q9UEW8); cell-free assay, competition with immobilised ligand: 100%
LTK (Homo sapiens, UniProt P29376); cell-free assay, competition with immobilised ligand: 100%
LYN (Homo sapiens, UniProt P07948); cell-free assay, competition with immobilised ligand: 81%
FLT3 (Homo sapiens, UniProt P36888); cell-free assay, competition with immobilised ligand: 63%
Cyclin-dependent kinase 4, with cyclin D3 (CDK4, Homo sapiens, UniProt P11802); cell-free assay, competition with immobilised ligand: 81%
SIK1 (Homo sapiens, UniProt P57059); competition binding: 100%

Study 4 — tested at: 1 µM; endpoint: inhibition
SMILES: C=CC(=O)N1CCC[C@@H](n2nc(-c3ccc(Oc4ccccc4)cc3)c3c(N)ncnc32)C1
CDKL3 (Homo sapiens, UniProt Q8IVW4); enzyme activity, inhibitor: 8%
ACVR2A (Homo sapiens, UniProt P27037); enzyme activity, inhibitor: 0%
Non-receptor tyrosine-protein kinase TYK2, JH2 pseudokinase domain (TYK2, Homo sapiens, UniProt P29597); inhibitor: 7%
Receptor-type tyrosine-protein kinase FLT3, ITD (FLT3, Homo sapiens, UniProt P36888); inhibitor: 37%
Macrophage colony-stimulating factor 1 receptor, autoinhibited (CSF1R, Homo sapiens, UniProt P07333); inhibitor: 2%
FLT3 (Homo sapiens, UniProt P36888, D835V); inhibitor: 91%
MAP4K2 (Homo sapiens, UniProt Q12851); enzyme activity, inhibitor: 38%
MTOR (Homo sapiens, UniProt P42345): 20%
TYRO3 (Homo sapiens, UniProt Q06418); inhibitor: 76%
MAPK4 (Homo sapiens, UniProt P31152); enzyme activity, inhibitor: 3%
NEK9 (Homo sapiens, UniProt Q8TD19); enzyme activity, inhibitor: 8%
ROS1 (Homo sapiens, UniProt P08922); enzyme activity, inhibitor: 4%

Repeated from above (study 4):
Receptor-type tyrosine-protein kinase FLT3, ITD (FLT3, Homo sapiens, UniProt P36888); inhibitor: 37%
Macrophage colony-stimulating factor 1 receptor, autoinhibited (CSF1R, Homo sapiens, UniProt P07333); inhibitor: 2%
FLT3 (Homo sapiens, UniProt P36888, D835V); inhibitor: 91%
